{"data": "Experimental data of several laboratories", "note": "Numbered parts are unrelated; each lists some results of a single study. Substitutions count along the parent as printed.", "chain of UniProt Q9ZTX9 (whole entry, looked up)": "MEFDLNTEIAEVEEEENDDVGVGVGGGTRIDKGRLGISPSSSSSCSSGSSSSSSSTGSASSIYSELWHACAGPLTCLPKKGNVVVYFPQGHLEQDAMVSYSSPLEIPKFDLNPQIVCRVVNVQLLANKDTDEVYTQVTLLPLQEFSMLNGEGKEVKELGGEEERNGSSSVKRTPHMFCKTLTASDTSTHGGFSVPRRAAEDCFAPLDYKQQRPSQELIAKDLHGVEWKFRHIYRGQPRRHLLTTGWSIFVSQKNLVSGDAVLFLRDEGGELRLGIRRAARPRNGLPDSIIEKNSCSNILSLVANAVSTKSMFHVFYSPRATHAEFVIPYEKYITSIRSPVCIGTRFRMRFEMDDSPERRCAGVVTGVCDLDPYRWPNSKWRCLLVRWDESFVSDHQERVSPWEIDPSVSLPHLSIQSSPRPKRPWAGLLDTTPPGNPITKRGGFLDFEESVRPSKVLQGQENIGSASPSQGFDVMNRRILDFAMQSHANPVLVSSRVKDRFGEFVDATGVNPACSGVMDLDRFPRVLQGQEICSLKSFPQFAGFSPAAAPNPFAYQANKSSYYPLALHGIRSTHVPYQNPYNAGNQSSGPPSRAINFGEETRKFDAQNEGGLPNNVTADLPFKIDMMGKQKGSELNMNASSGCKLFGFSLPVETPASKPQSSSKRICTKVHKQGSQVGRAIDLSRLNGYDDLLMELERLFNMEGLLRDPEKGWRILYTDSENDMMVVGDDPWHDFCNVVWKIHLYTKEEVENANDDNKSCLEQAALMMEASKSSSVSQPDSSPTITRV", "chain of UniProt Q9C5X0 (whole entry, looked up)": "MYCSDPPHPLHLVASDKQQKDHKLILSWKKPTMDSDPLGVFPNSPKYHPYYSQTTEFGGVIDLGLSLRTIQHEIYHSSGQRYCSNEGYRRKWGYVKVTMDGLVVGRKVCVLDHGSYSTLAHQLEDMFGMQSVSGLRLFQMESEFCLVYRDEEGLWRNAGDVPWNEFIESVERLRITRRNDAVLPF", "chain of UniProt Q9SKN5 (whole entry, looked up)": "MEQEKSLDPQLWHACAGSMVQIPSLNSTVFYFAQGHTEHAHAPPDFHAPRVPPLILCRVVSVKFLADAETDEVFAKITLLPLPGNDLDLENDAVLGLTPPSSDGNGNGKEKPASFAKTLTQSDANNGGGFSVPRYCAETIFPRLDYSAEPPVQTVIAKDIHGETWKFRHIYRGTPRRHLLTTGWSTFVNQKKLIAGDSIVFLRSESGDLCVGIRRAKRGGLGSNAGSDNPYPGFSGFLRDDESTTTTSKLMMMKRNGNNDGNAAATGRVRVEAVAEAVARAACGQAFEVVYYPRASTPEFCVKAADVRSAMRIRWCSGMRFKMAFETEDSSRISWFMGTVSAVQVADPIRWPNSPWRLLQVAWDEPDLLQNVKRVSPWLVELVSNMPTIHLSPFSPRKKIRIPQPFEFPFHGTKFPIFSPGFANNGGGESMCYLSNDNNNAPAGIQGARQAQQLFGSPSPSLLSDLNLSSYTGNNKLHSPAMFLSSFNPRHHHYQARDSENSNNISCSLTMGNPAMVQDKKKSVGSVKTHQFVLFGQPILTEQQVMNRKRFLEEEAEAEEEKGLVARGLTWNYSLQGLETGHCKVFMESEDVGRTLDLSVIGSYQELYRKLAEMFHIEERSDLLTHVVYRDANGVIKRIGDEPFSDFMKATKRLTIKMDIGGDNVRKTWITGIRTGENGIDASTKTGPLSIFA", "chain of UniProt Q38830 (whole entry, looked up)": "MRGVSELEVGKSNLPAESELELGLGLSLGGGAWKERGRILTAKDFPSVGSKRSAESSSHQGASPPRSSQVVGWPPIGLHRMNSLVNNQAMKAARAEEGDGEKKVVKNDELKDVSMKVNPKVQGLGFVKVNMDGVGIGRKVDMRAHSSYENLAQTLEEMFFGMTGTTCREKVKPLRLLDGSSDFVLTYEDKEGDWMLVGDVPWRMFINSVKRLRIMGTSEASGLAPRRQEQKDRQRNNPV", "chain of UniProt Q9FGV1 (whole entry, looked up)": "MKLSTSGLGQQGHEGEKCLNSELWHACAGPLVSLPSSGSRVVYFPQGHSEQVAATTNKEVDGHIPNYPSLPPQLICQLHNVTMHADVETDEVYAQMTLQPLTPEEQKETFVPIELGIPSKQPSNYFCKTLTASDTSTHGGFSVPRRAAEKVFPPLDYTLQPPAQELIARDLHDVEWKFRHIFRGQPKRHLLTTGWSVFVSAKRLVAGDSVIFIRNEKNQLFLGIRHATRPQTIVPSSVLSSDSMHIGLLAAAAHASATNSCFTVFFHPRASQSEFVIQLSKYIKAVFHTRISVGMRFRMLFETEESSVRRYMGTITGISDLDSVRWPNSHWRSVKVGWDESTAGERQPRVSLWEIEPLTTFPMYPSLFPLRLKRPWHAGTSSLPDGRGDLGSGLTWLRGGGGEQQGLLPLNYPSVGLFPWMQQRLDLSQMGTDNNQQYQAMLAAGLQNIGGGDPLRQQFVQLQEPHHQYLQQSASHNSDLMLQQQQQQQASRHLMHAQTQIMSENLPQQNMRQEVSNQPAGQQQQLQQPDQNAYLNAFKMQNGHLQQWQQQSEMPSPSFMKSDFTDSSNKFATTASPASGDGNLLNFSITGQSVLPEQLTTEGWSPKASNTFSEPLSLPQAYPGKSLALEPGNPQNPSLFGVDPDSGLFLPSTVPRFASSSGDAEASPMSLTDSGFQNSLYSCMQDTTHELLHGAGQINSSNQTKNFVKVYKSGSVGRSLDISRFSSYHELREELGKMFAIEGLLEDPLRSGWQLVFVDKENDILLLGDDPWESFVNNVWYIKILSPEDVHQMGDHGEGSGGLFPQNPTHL", "chain of UniProt Q9XFM0 (whole entry, looked up)": "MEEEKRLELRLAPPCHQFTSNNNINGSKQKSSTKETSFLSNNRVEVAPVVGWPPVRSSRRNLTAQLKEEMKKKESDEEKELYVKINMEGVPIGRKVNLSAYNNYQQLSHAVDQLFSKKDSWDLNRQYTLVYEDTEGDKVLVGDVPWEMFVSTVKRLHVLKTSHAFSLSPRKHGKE", "chain of UniProt Q38828 (whole entry, looked up)": "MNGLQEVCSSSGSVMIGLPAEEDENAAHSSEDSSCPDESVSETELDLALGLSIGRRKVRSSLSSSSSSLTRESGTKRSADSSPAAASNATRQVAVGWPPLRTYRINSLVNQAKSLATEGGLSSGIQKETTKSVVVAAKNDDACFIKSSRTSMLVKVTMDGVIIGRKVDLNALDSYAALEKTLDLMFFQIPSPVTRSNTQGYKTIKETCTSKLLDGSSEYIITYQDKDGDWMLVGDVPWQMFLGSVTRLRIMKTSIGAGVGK"}
{"data": "Sample 1", "Substance": "IAA9 (Arabidopsis thaliana, UniProt Q38827)", "technique": "two-hybrid", "direction": "higher = firmer interaction", "chain of UniProt Q38827 (whole entry, looked up)": "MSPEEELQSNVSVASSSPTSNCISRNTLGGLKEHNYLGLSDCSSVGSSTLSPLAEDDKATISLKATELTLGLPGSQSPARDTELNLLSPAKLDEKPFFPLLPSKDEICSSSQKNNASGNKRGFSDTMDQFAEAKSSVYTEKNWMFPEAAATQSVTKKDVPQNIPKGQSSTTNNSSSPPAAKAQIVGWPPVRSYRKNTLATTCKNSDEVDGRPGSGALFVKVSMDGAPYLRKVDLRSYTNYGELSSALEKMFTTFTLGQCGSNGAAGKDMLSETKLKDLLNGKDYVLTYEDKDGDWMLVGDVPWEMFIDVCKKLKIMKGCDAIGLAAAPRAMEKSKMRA"}
{"partner": "IAA10 (Arabidopsis thaliana, UniProt Q38828)", "how to read": "reference: out of 2 tests", "positive tests": 2}
{"partner": "IAA34 (Arabidopsis thaliana, UniProt Q9C5X0)", "how to read": "reference: out of 2 tests", "positive tests": 2}
{"partner": "ARF6 790-935 (Arabidopsis thaliana, UniProt Q9ZTX8)", "how to read": "reference: out of 2 tests", "positive tests": 2}
{"partner": "ARF4 660-788 (Arabidopsis thaliana, UniProt Q9ZTX9)", "how to read": "reference: out of 2 tests", "positive tests": 0}
{"partner": "ARF8 699-811 (Arabidopsis thaliana, UniProt Q9FGV1)", "how to read": "reference: out of 2 tests", "positive tests": 1}
{"partner": "IAA28 (Arabidopsis thaliana, UniProt Q9XFM0)", "how to read": "reference: out of 2 tests", "positive tests": 2}
{"partner": "ARF10 575-693 (Arabidopsis thaliana, UniProt Q9SKN5)", "how to read": "reference: out of 4 tests", "positive tests": 0}
{"partner": "IAA12 (Arabidopsis thaliana, UniProt Q38830)", "how to read": "reference: out of 4 tests", "positive tests": 4}
{"data": "Sample 2", "target": "Sal-like protein 4, full length isoform A (SALL4, Homo sapiens, UniProt Q9UJQ4, residues 1-1053)", "technique": "universal PBM", "molecule type": "double-stranded DNA, one strand shown", "matrix": "in vitro", "tested at": "600 nM", "setting": "8-mer, flanks averaged, mean of replicates", "direction": "higher = stronger binding", "chain of UniProt Q9UJQ4 (whole entry, looked up)": "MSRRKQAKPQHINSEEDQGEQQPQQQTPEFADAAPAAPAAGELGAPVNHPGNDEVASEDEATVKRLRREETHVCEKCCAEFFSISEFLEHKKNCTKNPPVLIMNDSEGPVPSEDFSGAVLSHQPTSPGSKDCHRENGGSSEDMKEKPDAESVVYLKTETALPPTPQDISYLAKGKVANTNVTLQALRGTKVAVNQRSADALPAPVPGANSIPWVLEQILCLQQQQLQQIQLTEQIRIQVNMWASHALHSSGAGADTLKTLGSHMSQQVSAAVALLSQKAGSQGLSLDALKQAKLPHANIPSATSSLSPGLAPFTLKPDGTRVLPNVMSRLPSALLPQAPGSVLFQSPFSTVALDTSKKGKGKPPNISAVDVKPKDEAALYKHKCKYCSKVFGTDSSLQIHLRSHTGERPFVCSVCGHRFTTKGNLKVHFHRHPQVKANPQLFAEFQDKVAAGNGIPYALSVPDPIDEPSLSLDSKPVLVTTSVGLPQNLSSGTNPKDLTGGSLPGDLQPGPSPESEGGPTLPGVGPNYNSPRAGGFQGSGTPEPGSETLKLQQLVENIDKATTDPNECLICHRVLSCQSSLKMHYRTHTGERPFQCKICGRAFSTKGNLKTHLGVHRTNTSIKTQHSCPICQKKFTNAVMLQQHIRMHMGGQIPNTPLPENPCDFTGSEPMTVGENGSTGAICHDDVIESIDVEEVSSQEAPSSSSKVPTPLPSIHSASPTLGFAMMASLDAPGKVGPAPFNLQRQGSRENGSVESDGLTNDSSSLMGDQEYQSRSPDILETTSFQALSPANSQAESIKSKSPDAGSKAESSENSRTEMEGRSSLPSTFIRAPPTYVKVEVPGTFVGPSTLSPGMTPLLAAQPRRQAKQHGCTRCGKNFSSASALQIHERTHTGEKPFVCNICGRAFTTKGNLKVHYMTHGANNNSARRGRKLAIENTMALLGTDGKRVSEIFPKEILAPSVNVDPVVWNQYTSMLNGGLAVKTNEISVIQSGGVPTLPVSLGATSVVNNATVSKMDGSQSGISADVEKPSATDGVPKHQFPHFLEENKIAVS"}
{"Oligonucleotide": "GAACACAC", "E-score": -0.131}
{"Oligonucleotide": "AATCTAGC", "E-score": -0.00464}
{"Oligonucleotide": "ATAACAAC", "E-score": 0.291}
{"Oligonucleotide": "AACAAACC", "E-score": 0.0317}
{"Oligonucleotide": "ATCGATGC", "E-score": 0.074}
{"Oligonucleotide": "AGGTTAAA", "E-score": 0.215}
{"Oligonucleotide": "GGGCCGCA", "E-score": -0.291}
{"Oligonucleotide": "AGTGCCAC", "E-score": -0.228}
{"data": "Sample 3", "target": "PABPC1L2, full length, GST fusion (mouse, UniProt A0ABA7IW68)", "technique": "RNAcompete", "molecule type": "RNA", "matrix": "in vitro", "tested at": "20 nM", "setting": "7-mer, probes averaged, single round", "reference": "mean of 7-mers", "direction": "higher = stronger binding", "Target sequence (chain)": "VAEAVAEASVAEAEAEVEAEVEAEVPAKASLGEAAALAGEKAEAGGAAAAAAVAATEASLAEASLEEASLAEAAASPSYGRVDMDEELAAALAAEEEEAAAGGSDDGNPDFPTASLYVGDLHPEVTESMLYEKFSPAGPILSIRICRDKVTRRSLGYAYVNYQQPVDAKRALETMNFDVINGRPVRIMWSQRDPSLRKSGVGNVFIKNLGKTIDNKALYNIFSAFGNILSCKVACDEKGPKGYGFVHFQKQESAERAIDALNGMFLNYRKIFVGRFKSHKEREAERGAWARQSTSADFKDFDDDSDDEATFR"}
{"Oligonucleotide": "CAGUGCG", "7-mer Z-score": -0.139}
{"Oligonucleotide": "CUAAUUU", "7-mer Z-score": -0.282}
{"Oligonucleotide": "GCAGUCA", "7-mer Z-score": -0.142}
{"Oligonucleotide": "AGUAGCG", "7-mer Z-score": -0.13}
{"Oligonucleotide": "UUAAGUG", "7-mer Z-score": 0.00436}
{"Oligonucleotide": "AAAAGCG", "7-mer Z-score": 4.46}
{"Oligonucleotide": "ACCGCCC", "7-mer Z-score": -0.383}
{"Oligonucleotide": "UAGAGUC", "7-mer Z-score": -0.233}
{"data": "Mixed results", "parent": "viral docking peptide; TSVRRALFTGGSD; partner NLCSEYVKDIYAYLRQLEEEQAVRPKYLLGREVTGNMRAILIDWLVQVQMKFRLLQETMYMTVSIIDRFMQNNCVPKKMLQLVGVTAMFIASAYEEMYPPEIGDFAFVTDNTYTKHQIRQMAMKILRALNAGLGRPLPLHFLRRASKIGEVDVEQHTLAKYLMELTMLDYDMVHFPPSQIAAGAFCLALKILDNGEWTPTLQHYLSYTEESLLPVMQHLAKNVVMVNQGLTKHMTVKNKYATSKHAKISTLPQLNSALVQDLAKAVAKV"}
{"Substitution": "TSVRRALFTGYSD [G11Y]", "target": "CCNB1, cyclin fold, Cln2 fusion (human)", "test": "yeast growth competition, sequencing", "system": "yeast", "setting": "strong parent motif", "how to read": "reference: not given, higher = stronger binding", "measurement": "normalised enrichment score", "result": 1.58}
{"note": "A few entries again (sample 1):"}
{"partner": "IAA10 (Arabidopsis thaliana, UniProt Q38828)", "how to read": "reference: out of 2 tests", "positive tests": 2}
{"partner": "IAA34 (Arabidopsis thaliana, UniProt Q9C5X0)", "how to read": "reference: out of 2 tests", "positive tests": 2}
